Experimental data pooled from the literature.
Each numbered part is a random draw from the data of one study; scales do not carry over between parts. Positions count from the first letter of the parent shown.
Sequence of UniProt Q9NPD8 (whole entry, looked up): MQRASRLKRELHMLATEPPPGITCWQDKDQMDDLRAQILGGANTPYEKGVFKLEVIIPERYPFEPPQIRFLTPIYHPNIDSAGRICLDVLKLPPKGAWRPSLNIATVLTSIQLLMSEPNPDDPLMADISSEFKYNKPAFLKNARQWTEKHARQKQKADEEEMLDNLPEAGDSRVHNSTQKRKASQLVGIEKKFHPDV
Sequence of UniProt P61081 (whole entry, looked up): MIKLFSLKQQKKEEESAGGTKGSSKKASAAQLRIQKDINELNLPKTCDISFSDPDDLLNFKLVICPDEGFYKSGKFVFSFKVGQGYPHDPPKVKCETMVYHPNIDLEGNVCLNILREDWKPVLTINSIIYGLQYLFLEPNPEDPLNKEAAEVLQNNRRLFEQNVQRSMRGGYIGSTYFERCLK
Sequence of UniProt Q9C0C9 (whole entry, looked up): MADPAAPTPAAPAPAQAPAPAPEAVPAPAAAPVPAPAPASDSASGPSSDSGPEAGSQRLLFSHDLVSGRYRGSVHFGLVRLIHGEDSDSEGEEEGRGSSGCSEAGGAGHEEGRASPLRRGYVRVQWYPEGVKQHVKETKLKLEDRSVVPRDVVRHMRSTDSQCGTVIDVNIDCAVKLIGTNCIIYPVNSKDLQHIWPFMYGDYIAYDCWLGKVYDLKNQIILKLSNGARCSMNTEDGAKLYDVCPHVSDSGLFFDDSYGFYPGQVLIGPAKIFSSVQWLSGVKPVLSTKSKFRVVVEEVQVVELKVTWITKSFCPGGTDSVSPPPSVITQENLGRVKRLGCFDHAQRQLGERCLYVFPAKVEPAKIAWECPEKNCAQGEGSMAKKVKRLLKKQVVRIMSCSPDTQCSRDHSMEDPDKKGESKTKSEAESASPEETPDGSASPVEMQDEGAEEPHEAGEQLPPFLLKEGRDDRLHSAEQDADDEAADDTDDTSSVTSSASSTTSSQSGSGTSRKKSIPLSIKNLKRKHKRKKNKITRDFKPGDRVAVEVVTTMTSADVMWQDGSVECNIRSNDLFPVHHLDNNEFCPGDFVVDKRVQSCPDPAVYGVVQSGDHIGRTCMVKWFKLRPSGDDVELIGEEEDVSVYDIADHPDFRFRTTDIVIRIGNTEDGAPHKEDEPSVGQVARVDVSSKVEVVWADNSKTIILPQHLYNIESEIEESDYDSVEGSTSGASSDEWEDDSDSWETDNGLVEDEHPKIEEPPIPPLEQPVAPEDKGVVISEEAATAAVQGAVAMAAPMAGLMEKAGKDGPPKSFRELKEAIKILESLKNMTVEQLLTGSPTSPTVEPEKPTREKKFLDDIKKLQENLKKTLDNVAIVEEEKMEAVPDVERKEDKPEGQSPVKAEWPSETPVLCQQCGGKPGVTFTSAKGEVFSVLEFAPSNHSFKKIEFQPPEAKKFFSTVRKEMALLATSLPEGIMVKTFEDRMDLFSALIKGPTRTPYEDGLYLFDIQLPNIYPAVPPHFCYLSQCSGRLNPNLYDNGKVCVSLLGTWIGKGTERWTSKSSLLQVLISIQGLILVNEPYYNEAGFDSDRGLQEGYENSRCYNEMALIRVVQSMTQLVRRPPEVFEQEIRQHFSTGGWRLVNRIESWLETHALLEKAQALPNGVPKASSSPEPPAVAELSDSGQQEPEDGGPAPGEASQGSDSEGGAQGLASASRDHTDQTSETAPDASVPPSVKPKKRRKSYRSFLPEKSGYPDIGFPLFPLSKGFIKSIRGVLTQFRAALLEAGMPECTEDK
Sequence of UniProt Q9Y385 (whole entry, looked up): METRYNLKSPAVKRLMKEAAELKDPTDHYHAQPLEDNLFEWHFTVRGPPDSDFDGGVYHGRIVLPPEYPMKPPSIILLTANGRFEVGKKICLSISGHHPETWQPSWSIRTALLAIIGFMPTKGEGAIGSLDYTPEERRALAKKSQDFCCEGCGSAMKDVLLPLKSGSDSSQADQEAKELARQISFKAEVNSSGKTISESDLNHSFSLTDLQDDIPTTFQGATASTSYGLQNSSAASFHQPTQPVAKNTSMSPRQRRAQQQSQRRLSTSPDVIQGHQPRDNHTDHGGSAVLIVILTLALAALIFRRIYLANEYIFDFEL
Sequence of UniProt Q712K3 (whole entry, looked up): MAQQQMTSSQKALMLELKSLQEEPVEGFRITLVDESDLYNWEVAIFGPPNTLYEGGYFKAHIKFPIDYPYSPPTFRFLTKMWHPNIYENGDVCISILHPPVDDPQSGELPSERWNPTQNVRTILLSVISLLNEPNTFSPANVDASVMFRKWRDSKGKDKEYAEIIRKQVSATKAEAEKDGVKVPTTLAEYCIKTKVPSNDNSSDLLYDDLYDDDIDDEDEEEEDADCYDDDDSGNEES
Sequence of UniProt O00762 (whole entry, looked up): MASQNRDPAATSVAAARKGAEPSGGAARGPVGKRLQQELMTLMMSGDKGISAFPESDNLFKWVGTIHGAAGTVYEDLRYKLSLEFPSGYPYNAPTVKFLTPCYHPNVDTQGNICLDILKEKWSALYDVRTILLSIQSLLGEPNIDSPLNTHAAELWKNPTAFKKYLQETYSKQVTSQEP
Sequence of UniProt Q9H832 (whole entry, looked up): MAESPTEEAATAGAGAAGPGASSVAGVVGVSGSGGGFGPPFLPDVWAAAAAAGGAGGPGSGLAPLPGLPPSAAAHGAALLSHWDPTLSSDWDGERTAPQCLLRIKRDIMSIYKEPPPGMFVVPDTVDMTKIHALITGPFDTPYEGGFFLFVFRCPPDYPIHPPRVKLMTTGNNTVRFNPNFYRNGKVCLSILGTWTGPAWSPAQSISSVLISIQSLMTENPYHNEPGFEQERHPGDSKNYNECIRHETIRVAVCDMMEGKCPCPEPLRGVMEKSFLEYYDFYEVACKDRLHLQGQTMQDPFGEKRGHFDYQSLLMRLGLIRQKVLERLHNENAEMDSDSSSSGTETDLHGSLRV
Sequence of UniProt P62253 (whole entry, looked up): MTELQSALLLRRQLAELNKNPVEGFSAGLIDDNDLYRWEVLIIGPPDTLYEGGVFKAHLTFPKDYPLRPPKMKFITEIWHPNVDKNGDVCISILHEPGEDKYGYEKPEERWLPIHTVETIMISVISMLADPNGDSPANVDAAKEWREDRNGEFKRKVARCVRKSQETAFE

Block 1
Target: Interferon regulatory factor 5, full length, phosphomimetic (IRF5, Homo sapiens, UniProt Q13568-2, residues 1-514, S451D/S453D/S456D/S462D)
Method: protein-binding microarray
Form: double-stranded DNA, one strand shown
Matrix: in vitro
Concentration: 940 nM top
Notes: 60-bp whole probe
Together with: salmon DNA 0.4 mg/ml
Relative to: random background probes
Reading: higher = stronger binding
Constant ends, left off below: GCCTAGCAC … GTCTTGATTCGCTTGACGCTGCTG
| Oligonucleotide | fitted relative affinity [z-score] |
| --- | --- |
| TTAGGACTGGACTATCTGTTAGTGCTA | -0.284 |
| TTAGTTATCCTTATCCTTTAGTGCTAG | 0.917 |
| TCATGCTTGGGTCTGGGACTGTGCTAG | -0.018 |
| TTAGATCTAAGTCTCGATTAGTGCTAG | 2.12 |
| TTAGGTATCCTTTGCCTTTAGTGCTAG | 0.206 |
| GACGAACTGGGGACTGGCGACGTGCTA | -0.451 |
| TTTGATATCGGGTATCGATTAGTGCTA | 3.23 |
| ACTAGATAAGACAAAGTGATGTGCTAG | -0.303 |
| ACACGGCTCTAAACTCATGTAGTGCTA | 0.0383 |
| TCATCTTTTATTTTTTTACTGTGCTAG | 1.86 |
| GACGAACTTAGTTTCGAGACGTGCTAG | 4.45 |
| TTAGGACTGGTTCTCCTTTAGTGCTAG | 0.158 |
| TTAGGTTTCTGACTGGGTTAGTGCTAG | 2.1 |
| TTTAGGTCCCTTTTCATGCTGTGCTAG | 0.0751 |
| GACGGTATTCTACTGCTGACGTGCTAG | 0.186 |
| TTAGGGTCCGGTTTCGGTTAGTGCTAG | 7.49 |
| TTAGATTTCTGTTTCGATTAGTGCTAG | 5.05 |
| AGCTGTTTGAGAAATCAGATGGTGCTA | 0.0523 |
| TTAGGACTGGGTTTCGGATAGTGCTAG | 2.62 |

Block 2
Target: CCNA2, cyclin fold, Cln2 fusion (human)
Method: yeast growth competition, sequencing
Matrix: yeast
Notes: strong parent motif
Relative to: not given
Reading: higher = stronger binding
Starting sequence: CDC25A docking peptide (human); PPHRRRLLFACSP
| Variant | normalised enrichment score |
| --- | --- |
| P2C | 2.61 |
| L7C | 1.69 |
| A10T | 3.28 |
| P1M | 2.16 |
| S12L | 2.82 |
| P2E | 1.85 |
| S12R | 1.83 |
| L8N | 4.04 |
| R6H | 1.11 |
| C11Q | 2.97 |
| P2Q | 2.7 |
| H3M | 3.57 |
| L8R | 1.75 |
| C11L | 2.13 |
| H3F | 4.5 |
| P2K | 3.01 |
| P2Y | 2.4 |
| C11D | 3.88 |
| R4I | 2.2 |

Block 3
Target: Histone acetyltransferase KAT6A, winged helix 2, GST fusion (KAT6A, Homo sapiens, UniProt Q92794, residues 85-181)
Method: protein binding microarray
Form: double-stranded DNA, one strand shown
Matrix: in vitro
Concentration: not given
Notes: 8-mer, flanks averaged, mean of 2 arrays, mostly near background
Relative to: not given
Reading: higher = stronger binding
Target sequence (chain): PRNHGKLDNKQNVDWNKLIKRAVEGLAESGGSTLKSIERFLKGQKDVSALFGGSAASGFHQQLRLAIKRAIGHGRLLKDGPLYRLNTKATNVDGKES
| Oligonucleotide | E-score |
| --- | --- |
| ACTTGCGC | -0.0671 |
| GGAGGGTA | -0.0184 |
| AGAACCTA | -0.217 |
| CCTCAGCG | -0.0281 |
| CAAGGATA | -0.0726 |
| GGGTCACC | -0.0368 |
| CCGTGTAG | -0.0785 |
| CATAAGAG | 0.0445 |
| GGTTAAAC | 0.0905 |
| GGCGGCAA | 0.211 |
| ACCGCACA | -0.0111 |
| AGGACCGA | 0.00928 |
| ACCGAAGT | -0.15 |
| CAGGGTAG | -4.5e-05 |
| AAAGGATG | -0.0213 |
| AGCAGCGA | 0.181 |
| CTGAATCC | 0.0493 |
| TAGGTCCA | -0.061 |
| AGGCCTAA | 0.012 |
| TCGGCTCA | -0.0179 |

Block 4
Target: ABI1, truncated, D143A, DHFR fusion (Arabidopsis thaliana)
Method: DHFR PCA, deep sequencing
Matrix: yeast
Notes: methotrexate growth selection, single substitutions
Together with: (+)-ABA 200 µM
Relative to: wild-type fitted maximum
Reading: higher = stronger binding
Starting sequence: PYL1, truncated, DHFR fusion (Arabidopsis thaliana); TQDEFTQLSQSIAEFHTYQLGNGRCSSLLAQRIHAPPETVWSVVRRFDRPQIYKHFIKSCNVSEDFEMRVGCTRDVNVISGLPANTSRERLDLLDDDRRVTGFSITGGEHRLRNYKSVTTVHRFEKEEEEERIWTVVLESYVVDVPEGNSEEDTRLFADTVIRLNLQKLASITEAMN
| Variant | relative binding score [%] |
| --- | --- |
| A84V | 24.4 |
| F56H | 47.2 |
| E109Y | 80.4 |
| E128C | 108 |
| L112G | -3.05 |
| N149V | 49.2 |
| T17Q | 94.2 |
| E130T | 101 |
| C60T | 89.4 |
| V143Q | 58.2 |
| R123C | 97.2 |
| Y115A | 4.39 |
| I12G | 30.3 |
| Q19I | 96.9 |
| V76I | 107 |
| V100Y | 56.1 |
| I105D | -19.7 |
| R111D | 36.6 |
| V78M | 92 |
| V118D | 1.43 |
| T17G | 74.8 |
| R49T | 97.2 |
| G107W | 39.9 |
| L112A | -14 |
| H16T | -7.14 |

Block 5
Molecule: B1 (PJA2 RING domain)
Method: yeast two-hybrid
Matrix: yeast
Notes: mostly zero background
Relative to: not given
Reading: higher = stronger interaction
B1: PJA2 RING domain (UniProt O43164); chain DHTAIGQEQCCPICCSEYIKDDIATELPCHHFFHKPCVSIWLQKSGTCPVCRRHFPPAVIEA
| target | lacZ reporter activity |
| --- | --- |
| UBE2T UBC core domain (UniProt Q9NPD8) | 0 |
| UBE2O UBC core domain (UniProt Q9C0C9) | 0 |
| UBE2R2 UBC core domain (UniProt Q712K3) | 0 |
| UBE2G1 UBC core domain (UniProt P62253) | 0 |
| UBE2J1 UBC core domain (UniProt Q9Y385) | 0 |
| UBE2M UBC core domain (UniProt P61081) | 0 |
| UBE2C UBC core domain (UniProt O00762) | 0 |
| UBE2Z UBC core domain (UniProt Q9H832) | 5420 |

Some of these lines once more (block 4):
| Variant | relative binding score [%] |
| --- | --- |
| G107W | 39.9 |
| E130T | 101 |
| E128C | 108 |
| H16T | -7.14 |
| R111D | 36.6 |
| E109Y | 80.4 |
